Measured values of several laboratories.
Compare with care: the assays were run in different laboratories. ± marks the error that the study gave.

| Structure (SMILES) | assay | system | conditions | scale | endpoint | result |
| --- | --- | --- | --- | --- | --- | --- |
| CC[C@H](C)[C@H](NC(=O)[C@H](CCCCN)NC(=O)CNC(=O)[C@H](CC(C)C)NC(=O)[C@H](Cc1ccccc1)NC(=O)[C@H](CCCCN)NC(=O)[C@H](CO)NC(=O)[C@H](Cc1ccccc1)NC(=O)[C@H](Cc1c[nH]c2ccccc12)NC(=O)[C@H](CCC(N)=O)NC(=O)[C@@H](NC(=O)[C@H](Cc1ccccc1)NC(=O)CCCCCNC(=O)CN1CCN(CC(=O)O)CCN(CC(=O)O)CCN(CC(=O)O)CC1)C(C)C)C(=O)N[C@@H](CCC(=O)O)C(=O)N1CCC[C@H]1C(=O)N[C@H](CC(=O)O)C(=O)N[C@H](C(=O)N[C@@H](CO)C(=O)N[C@@H](CCC(N)=O)C(=O)N[C@H](C(=O)N[C@@H](CCC(N)=O)C(=O)N[C@@H](CC(=O)O)C(=O)N1CCC[C@H]1C(=O)N[C@@H](CC(N)=O)C(=O)N[C@@H](CC(=O)O)C(=O)N[C@@H](CCC(N)=O)C(=O)N[C@@H](Cc1ccc(O)cc1)C(=O)N[C@@H](CCC(=O)O)C(=O)N1CCC[C@H]1C(=O)N[C@@H](Cc1ccccc1)C(=O)O)C(C)C)C(C)C [copper-64 labelled] |  | female mice, EMT6 tumour-bearing, tumor | 2 h, uncleavable control tracer, checkpoint inhibitor-treated |  | tissue uptake | 1.35 ± 0.21 %ID/g |
| CC(C)C[C@H](NC(=O)[C@H](Cc1ccccc1)NC(=O)CNC(=O)CNC(=O)[C@@H](N)Cc1ccc(O)cc1)C(=O)N[C@@H](CSCB(O)O)C(N)=O | RP-HPLC | PBS | concentration not given, 24 h, pH 7.4, added: H2O2 100 µM |  | peptide remaining intact | 68% |
| CC(C)C[C@H](NC(=O)[C@H](Cc1ccc(O)cc1)NC(=O)[C@H](Cc1c[nH]cn1)NC(=O)[C@H](CCCCN)NC(=O)[C@H](CC(C)C)NC(=O)[C@H](C)NC(=O)[C@H](CC(C)C)NC(=O)[C@H](CCCCN)NC(=O)CNC(=O)[C@@H](NC(=O)[C@@H](NC(=O)[C@H](CCCCN)NC(=O)[C@@H](NC(=O)[C@H](CCC(=O)O)NC(=O)[C@H](C)NC(=O)[C@H](CCCCN)NC(=O)[C@H](CCCCN)NC(=O)[C@H](CC(C)C)NC(=O)[C@H](CC(C)C)NC(=O)[C@@H](NC(=O)[C@H](CCCNC(=N)N)NC(=O)[C@H](Cc1c[nH]c2ccccc12)NC(=O)CN)[C@@H](C)O)C(C)C)[C@@H](C)O)C(C)C)C(N)=O |  | zebrafish embryos 4 hpf, E3 medium | 1 h |  | acute toxic concentration | 25 µM |
| Cc1ccc(OCC(=O)N(Cc2cccs2)c2ccn[nH]2)cc1 | micronucleus | CD-1 mouse Crl:CD-1(ICR), male, bone marrow | oral, 1000 mg/kg/day, 3 days |  | PCE to total erythrocyte ratio | 0.63 ± 0.08 |
| CC1(C)C(=O)N(c2ccc(C#N)c(C(F)(F)F)c2)C(=S)N1c1ccc(C(=O)O)c(F)c1 |  | male human, plasma | oral, 80 mg, single dose, fasted |  | MRT | 298 h |
| CCN(CCCCOc1ccc(CCC(=O)N2CCC(Cc3ccccc3)CC2)cc1OC)Cc1ccccc1 |  | Sprague-Dawley rats, both sexes, faeces | oral gavage, 25 mg/kg, 24 to 48 h | relative to: dose | excretion rate | 0.814 ± 0.0763% |
| N=C(N)NCCC[C@@H](NC(=O)[C@H](N)Cc1c[nH]c2ccccc12)C(=O)N[C@H](CCCCN)C(=O)N[C@H](Cc1c[nH]c2ccccc12)C(=O)N[C@H](CCCNC(=N)N)C(=O)N[C@H](CCCCN)C(=O)N[C@H](Cc1c[nH]c2ccccc12)C(=O)N[C@H](CCCNC(=N)N)C(=O)N[C@H](CCCCN)C(=O)N[C@H](Cc1c[nH]c2ccccc12)C(=O)N[C@H](CCCNC(=N)N)C(=O)N[C@H](CCCCN)C(N)=O |  | mouse | intraperitoneal, 20 mg/kg single dose, day 1 |  | survival | 100% |
| N#[11C]c1ccc(-c2csc(NN=C3CCCC3)n2)cc1 |  | C57BL/6 mice, male, liver | intravenous, 3 MBq, 5 min |  | radioactivity uptake | 20.3 ± 1.25 %ID/g |
| CCCCCCCCCCCCCCCC(=O)NCCCC[C@H](NC(=O)[C@H](CCC(=O)O)NC(=O)[C@H](Cc1ccc(O)cc1)NC(=O)[C@H](CCC(=O)O)NC(=O)COCC(=O)NCCCOCCOCCOCCCNC(=O)[C@H](Cc1ccccc1)NC(=O)[C@H](CC(N)=O)NC(=O)[C@H](Cc1c[nH]cn1)NC(=O)[C@@H](NC(=O)[C@H](CC(=O)O)NC(=O)[C@H](CCC(N)=O)NC(=O)[C@H](CC(C)C)NC(=O)[C@H](CCCCN)NC(=O)[C@H](CCCCN)NC(=O)[C@H](CCCNC(=N)N)NC(=O)[C@H](CC(C)C)NC(=O)[C@H](Cc1c[nH]c2ccccc12)NC(=O)[C@H](CCC(=O)O)NC(=O)[C@@H](NC(=O)[C@H](CCCNC(=N)N)NC(=O)[C@H](CCC(=O)O)NC(=O)[C@H](CCSC)NC(=O)[C@H](CO)NC(=O)[C@H](CC(N)=O)NC(=O)[C@H](CC(C)C)NC(=O)[C@H](Cc1c[nH]cn1)NC(=O)[C@H](CCCCN)NC(=O)CNC(=O)[C@H](CC(C)C)NC(=O)[C@H](CC(N)=O)NC(=O)[C@H](Cc1c[nH]cn1)NC(=O)[C@H](CCSC)NC(=O)[C@H](CC(C)C)NC(=O)[C@H](CCC(N)=O)NC(=O)[C@@H](NC(=O)[C@H](CCC(=O)O)NC(=O)[C@H](CO)NC(=O)[C@@H](NC(=O)[C@@H](N)CO)C(C)C)[C@@H](C)CC)C(C)C)C(C)C)C(=O)N[C@@H](CCC(=O)O)C(=O)N[C@@H](Cc1ccc(O)cc1)C(=O)N[C@@H](CCC(=O)O)C(N)=O | ELISA | female CD-1 mice, blood plasma | subcutaneous, 10 nmol/kg, 0.167 h |  | plasma concentration | 8.79 nM |
| CC[C@H](C)[C@H](NC(=O)[C@H](Cc1ccccc1)NC(=O)[C@H](CCC(=O)O)NC(=O)[C@H](CCCCN)NC(=O)[C@H](C)NC(=O)[C@H](C)NC(=O)[C@H](CCC(N)=O)NC(=O)CNC(=O)[C@H](CCC(=O)O)NC(=O)[C@H](CC(C)C)NC(=O)[C@H](Cc1ccc(O)cc1)NC(=O)[C@H](CO)NC(=O)[C@H](CO)NC(=O)[C@@H](NC(=O)[C@H](CC(=O)O)NC(=O)[C@H](CO)NC(=O)[C@@H](NC(=O)[C@H](Cc1ccccc1)NC(=O)[C@@H](NC(=O)CNC(=O)[C@H](CCC(=O)O)NC(=O)CNC(=O)[C@@H](N)Cc1c[nH]cn1)[C@@H](C)O)[C@@H](C)O)C(C)C)C(=O)N[C@@H](C)C(=O)N[C@@H](Cc1c[nH]c2ccccc12)C(=O)N[C@@H](CC(C)C)C(=O)N[C@H](C(=O)N[C@@H](CCCCN)C(=O)NCC(=O)N[C@@H](CCCNC(=N)N)C(=O)N[C@@H](CSC1CC(=O)N(CCC(=O)NCCCCC(NC(=O)CCN2C(=O)CC(SC[C@H](NC(=O)[C@H](CCCNC(=N)N)NC(=O)CNC(=O)[C@H](CCCCN)NC(=O)[C@@H](NC(=O)[C@H](CC(C)C)NC(=O)[C@H](Cc3c[nH]c4ccccc34)NC(=O)[C@H](C)NC(=O)[C@@H](NC(=O)[C@H](Cc3ccccc3)NC(=O)[C@H](CCC(=O)O)NC(=O)[C@H](CCCCN)NC(=O)[C@H](C)NC(=O)[C@H](C)NC(=O)[C@H](CCC(N)=O)NC(=O)CNC(=O)[C@H](CCC(=O)O)NC(=O)[C@H](CC(C)C)NC(=O)[C@H](Cc3ccc(O)cc3)NC(=O)[C@H](CO)NC(=O)[C@H](CO)NC(=O)[C@@H](NC(=O)[C@H](CC(=O)O)NC(=O)[C@H](CO)NC(=O)[C@@H](NC(=O)[C@H](Cc3ccccc3)NC(=O)[C@@H](NC(=O)CNC(=O)[C@H](CCC(=O)O)NC(=O)CNC(=O)[C@@H](N)Cc3c[nH]cn3)[C@@H](C)O)[C@@H](C)O)C(C)C)[C@@H](C)CC)C(C)C)C(N)=O)C2=O)C(=O)NCCCCCCN)C1=O)C(N)=O)C(C)C (stereo partly drawn) |  | Kunming mouse, plasma | subcutaneous, 50 nmol/kg |  | MRT | 2.6 ± 0.2 h |
| COc1ccc(CNc2ccc3c(c2)S(=O)(=O)C=C3)cc1 |  | male C57BL/6 mice, blood | intraperitoneal, 20 mg/kg, day 8, group average |  | mean corpuscular volume | 51.9 fL |
| O=C1NC2(CC2)COc2ncc(F)cc2[C@H]2COCCN2c2ccn3ncc1c3n2 |  | Sprague-Dawley rat, male, testes | oral, 10 mg/kg/day, 4 weeks, end of treatment |  | organ-to-brain weight ratio | 156 ± 12.5% |

Some of these lines once more:
| Structure (SMILES) | assay | system | conditions | scale | endpoint | result |
| --- | --- | --- | --- | --- | --- | --- |
| COc1ccc(CNc2ccc3c(c2)S(=O)(=O)C=C3)cc1 |  | male C57BL/6 mice, blood | intraperitoneal, 20 mg/kg, day 8, group average |  | mean corpuscular volume | 51.9 fL |
| O=C1NC2(CC2)COc2ncc(F)cc2[C@H]2COCCN2c2ccn3ncc1c3n2 |  | Sprague-Dawley rat, male, testes | oral, 10 mg/kg/day, 4 weeks, end of treatment |  | organ-to-brain weight ratio | 156 ± 12.5% |
